Published values from different studies.
Protocols differ between the studies behind these lines. “And” joins repeats or separate records; there may be more than shown. ± gives the spread as reported. In brackets after ≈: the same amount, converted by molar mass.

CN[C@@H]1[C@H](O)[C@H](NC)[C@H]2O[C@]3(O)[C@H](O[C@@H]2[C@H]1O)O[C@H](C)C[C@@]3(O)CNCc1ccc(F)cc1  inhibition zone diameter (Legionella pneumophila; ATCC 33153; 40 µg per disc, 48 h): 32 to 33 mm
COC(=O)CCCC1C2CCCN3CCCC(CN1C(=O)c1ccc(Cl)cc1)C23 (stereo not shown)  selectivity index (Ebola virus; EBOV GP pseudotyped HIV; relative to: CC50 over IC50): > 2.27
C[N+]1=C2C(c3ccc([N+](=O)[O-])cc3)=[N+]([O-])c3ccccc3N2CCC1  MIC (Clostridium perfringens): 0.125 to 2 µg/mL
O=[N+]([O-])c1ccc(-n2nc(-c3ccc(F)cc3)cc2-c2ccc(F)cc2)c([N+](=O)[O-])c1  viral particle reduction (Japanese encephalitis virus; plaque; Neuro2a, SA14-14-2; 15 µM, 72 h, post-treatment): ≤ 90%
CCCCCCCCCCCCCCCCCCCCCCSCC1OC(OC2C(N)CC(N)C(OC3OC(CN)C(O)CC3N)C2O)C(O)C(N)C1O (stereo not shown)  MIC (Bacillus anthracis; Sterne 34F2): 18.8 µg/mL
CN1CCN(C(=O)N[C@@H](Cc2ccccc2)C(=O)N[C@H](/C=C/S(=O)(=O)c2ccccc2)CCc2ccccc2)CC1  IC50 (Junin virus; pseudovirus entry; Vero): > 100 nM
Cc1ccc(N2CCN(C)CC2)cc1C(=O)NC1(c2ccc3c4c(cccc24)CC3)CC1  inhibition (SARS-CoV-2; viral replication; Vero C1008, wild type; 0.005716 µM): 0%
[O-][N+]1=C(c2ccccc2)C2=NCCCN2c2ncccc21  MIC (Clostridium perfringens): 0.25 to 1 µg/mL
COC(=O)c1ncn(C2CC(O)C(CO)O2)c1C(=O)OC (stereo not shown)  IC50 (Severe acute respiratory syndrome coronavirus; viral replication; Vero; 48 h): 18 µg/mL
O=C(c1ccccc1O)c1[nH]c(Cl)c(Cl)c1-n1c(C(=O)c2ccccc2O)cc(Cl)c1Cl  MIC (Yersinia pseudotuberculosis; ATCC 6904): > 64 µM
Oc1ccccc1Oc1ccccc1  MIC90 (Francisella tularensis; bacterial growth; LVS): 2.5 ± 0.2 µg/mL (≈ 13.4 µM)
CC[C@H](C)[C@H](NC(C)=O)C(=O)N[C@@H](CO)C(=O)NCC(=O)N[C@H](C(=O)N[C@@H](CC(N)=O)C(=O)N[C@@H](C)C(=O)N[C@@H](CO)C(=O)N[C@H](C(=O)N[C@H](C(=O)N[C@@H](CCC(=O)O)C(=O)N[C@H](C(=O)N[C@@H](CCC(N)=O)C(=O)N[C@@H](CCCCN)C(=O)N[C@@H](CCC(=O)O)C(=O)N[C@H](C(=O)N[C@@H](CCC(=O)O)C(=O)N[C@@H](CCCNC(=N)N)C(=O)N[C@@H](CC(C)C)C(=O)N[C@@H](CC(N)=O)C(=O)N[C@@H](CCCCN)C(=O)N[C@H](C(=O)N[C@@H](C)C(=O)N[C@@H](CCCCN)C(=O)N[C@@H](CCC(=O)O)C(=O)N[C@@H](CC(C)C)C(=O)N[C@@H](CC(N)=O)C(=O)N[C@@H](CCCCN)C(=O)N[C@@H](CO)C(=O)N[C@@H](CC(C)C)C(=O)N[C@H](C(=O)N[C@@H](CC(=O)O)C(=O)N[C@@H](CC(C)C)C(=O)N[C@@H](CCC(N)=O)C(=O)N[C@@H](CCC(=O)O)C(=O)NCC(=O)NCC(=O)NCC(=O)N[C@@H](CO)C(=O)NCC(=O)NCC(=O)NCC(=O)N[C@@H](CSSC[C@H](NC(=O)CNC(=O)CNC(=O)CNC(=O)[C@H](CO)NC(=O)CNC(=O)CNC(=O)CNC(=O)[C@H](CCC(=O)O)NC(=O)[C@H](CCC(N)=O)NC(=O)[C@H](CC(C)C)NC(=O)[C@H](CC(=O)O)NC(=O)[C@@H](NC(=O)[C@H](CC(C)C)NC(=O)[C@H](CO)NC(=O)[C@H](CCCCN)NC(=O)[C@H](CC(N)=O)NC(=O)[C@H](CC(C)C)NC(=O)[C@H](CCC(=O)O)NC(=O)[C@H](CCCCN)NC(=O)[C@H](C)NC(=O)[C@@H](NC(=O)[C@H](CCCCN)NC(=O)[C@H](CC(N)=O)NC(=O)[C@H](CC(C)C)NC(=O)[C@H](CCCNC(=N)N)NC(=O)[C@H](CCC(=O)O)NC(=O)[C@@H](NC(=O)[C@H](CCC(=O)O)NC(=O)[C@H](CCCCN)NC(=O)[C@H](CCC(N)=O)NC(=O)[C@@H](NC(=O)[C@H](CCC(=O)O)NC(=O)[C@@H](NC(=O)[C@@H](NC(=O)[C@H](CO)NC(=O)[C@H](C)NC(=O)[C@H](CC(N)=O)NC(=O)[C@@H](NC(=O)CNC(=O)[C@H](CO)NC(=O)[C@@H](NC(C)=O)[C@@H](C)CC)[C@@H](C)CC)C(C)C)C(C)C)[C@@H](C)CC)[C@@H](C)CC)C(C)C)[C@@H](C)CC)C(N)=O)C(N)=O)[C@@H](C)CC)C(C)C)[C@@H](C)CC)[C@@H](C)CC)C(C)C)C(C)C)[C@@H](C)CC  fold change IC50 vs corresponding monomer (SARS-CoV-2 Wuhan; viral replication; VeroE6/TMPRSS2 cells; relative to: corresponding monomer): 0.324
NNC(=O)c1ncn(C2OC(CO)C(O)C2O)c1C(=O)NN (stereo not shown)  IC50 (Zaire ebolavirus; viral replication, inhibitor; Vero; 72 h): 23 µg/mL
CC(C)CC(C(=O)N1CC2(CC1C#N)C(=O)Nc1ccccc12)N(C)C(=O)c1cc2c(F)cc(F)c(F)c2[nH]1 (stereo not shown)  inhibition (SARS-CoV-2; viral replication, infectious virus; Vero E6; 0.9 µM): 100%
CN[C@@H]1[C@H](O)[C@H](NC)[C@H]2O[C@]3(O)[C@H](O[C@@H]2[C@H]1O)O[C@H](C)C[C@H]3NC(=O)Cc1ccccc1  MIC (Bacillus anthracis; microbial growth; STERNE34F2): 100 µg/mL
O=C(C=Cc1ccc(O)c(O)c1)OC1CC(O)(C(=O)O)CC(OC(=O)C=Cc2ccc(O)c(O)c2)C1O (stereo not shown)  inhibition (Severe acute respiratory syndrome coronavirus 2; cytopathic effect, inhibitor; Vero C1008; 50 µM): 0%
N#Cc1ncn(COCCBr)c1C#N  IC50 (Mammarenavirus lassaense; viral replication, inhibitor; Vero; 48 h): 5 µg/mL
Cc1ccc(-c2cc(-c3ccccc3)nn2-c2ccc([N+](=O)[O-])cc2[N+](=O)[O-])cc1  plaque reduction (Japanese encephalitis virus; viral replication; SA14-14-2; 5 µM, co- and post-treatment): ~10%
[O-][N+]1=C(c2ccccc2)C2=NCCN2c2ccccc21  MIC50 (Clostridium perfringens; microbial growth): 0.5 µg/mL (≈ 1.9 µM)
Cc1ccc(NS(=O)(=O)c2c(C(=O)N3CCCCCC3)c(C)n(C)c2C)c(Cl)c1  infection (Vaccinia virus; viral infection; HaCaT; 100 µM, 36 h; relative to: untreated): 0.745% and 0.651% and 0.494%
COC(=O)c1ncn(C2OC(COC(C)=O)C(OC(C)=O)C2OC(C)=O)c1C(=O)OC (stereo not shown)  IC50 (Mammarenavirus lassaense; viral replication, inhibitor; Vero; 48 h): 12 µg/mL
CC[C@@H](C)[C@@H](NC(=O)[C@@H](CCCCN)NC(=O)[C@@H](CCCCN)NC(=O)[C@@H](CC(C)C)NC(=O)[C@@H](Cc1c[nH]c2ccccc12)NC(=O)CN)C(=O)NCC(=O)N[C@H](CCCCN)C(=O)N[C@H](CCCCN)C(=O)N[C@@H](C(=O)N[C@H](CCC(=O)O)C(=O)N[C@H](CCCNC(=N)N)C(=O)N[C@@H](C(=O)NCC(=O)N[C@H](CCC(N)=O)C(=O)N[C@H](Cc1c[nH]cn1)C(=O)N[C@@H](C(=O)N[C@H](CCCNC(=N)N)C(=O)N[C@H](CC(=O)O)C(=O)N[C@H](C)C(=O)N[C@@H](C(=O)N[C@@H](C(=O)N[C@H](CCC(N)=O)C(=O)N[C@@H](C(=O)N[C@@H](C(=O)NCC(=O)N[C@@H](C(=O)N[C@H](C)C(=O)N[C@H](CCC(N)=O)C(=O)N[C@H](CCC(N)=O)C(=O)N[C@H](C)C(=O)N[C@H](C)C(=O)N[C@H](CC(N)=O)C(=O)N[C@@H](C(=O)N[C@H](C)C(=O)N[C@H](C)C(=O)N[C@@H](C(=O)N[C@H](CC(C)C)C(=O)N[C@H](CCCCN)C(N)=O)[C@H](C)O)C(C)C)C(C)C)[C@H](C)CC)[C@H](C)O)[C@H](C)CC)[C@H](C)O)[C@H](C)O)C(C)C)[C@H](C)CC  MIC (Klebsiella pneumoniae; broth microdilution; DSM 30104, CAMHB): > 1020 µg/mL

A few entries again:
C[N+]1=C2C(c3ccc([N+](=O)[O-])cc3)=[N+]([O-])c3ccccc3N2CCC1  MIC (Clostridium perfringens): 0.125 to 2 µg/mL
O=[N+]([O-])c1ccc(-n2nc(-c3ccc(F)cc3)cc2-c2ccc(F)cc2)c([N+](=O)[O-])c1  viral particle reduction (Japanese encephalitis virus; plaque; Neuro2a, SA14-14-2; 15 µM, 72 h, post-treatment): ≤ 90%
CCCCCCCCCCCCCCCCCCCCCCSCC1OC(OC2C(N)CC(N)C(OC3OC(CN)C(O)CC3N)C2O)C(O)C(N)C1O (stereo not shown)  MIC (Bacillus anthracis; Sterne 34F2): 18.8 µg/mL
